Results gathered from unrelated publications.
Compare with care: the assays were run in different laboratories. Values joined by “and” are separate records of one study, mostly repeats; a detail may differ. ± gives the spread as reported.
APP: Amyloid-beta precursor protein (APP, Homo sapiens, UniProt P05067)
Protein farnesyltransferase: Protein farnesyltransferase (Rattus norvegicus, UniProt Q02293+Q04631)
Protein S100-B: Protein S100-B (Homo sapiens, UniProt P04271)
AR: Androgen receptor (AR, Homo sapiens, UniProt P10275)
ESR1: Estrogen receptor (ESR1, Homo sapiens, UniProt P03372)
CASP4: Caspase-4 (CASP4, Homo sapiens, UniProt P49662)
T1: FMN riboswitch G8A/G9A/G74A/G96A (Lactobacillus plantarum); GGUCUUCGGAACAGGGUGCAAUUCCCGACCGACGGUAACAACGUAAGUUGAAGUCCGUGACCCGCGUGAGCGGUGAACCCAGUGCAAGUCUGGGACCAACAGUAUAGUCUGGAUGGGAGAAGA

Nc1nc2c(ncn2[C@@H]2O[C@@H]3COP(=O)(O)O[C@H]3[C@H]2O)c(=O)[nH]1 — result for “relative maximal current”: under 20% (Cnga2 (Rattus norvegicus, UniProt Q00195, C460W/del61-90/E583M); agonist, inside-out patch clamp; concentration not given; reference: saturating cAMP).
The Kis of CCCCC/C=C\S/C=C\CCCCCCCC(=O)O is reported as 36 µM (Seed linoleate 13S-lipoxygenase-1 (Glycine max, UniProt P08170); inhibitor; pH 10.0, noncompetitive inhibition, added: linoleic acid).
The inhibition of CN(C)C/C=C/C(=O)Nc1cccc(C(=O)Nc2ccc(Nc3nccc(-c4c(-c5ccccc5)nn5ccccc45)n3)cc2)c1 is reported as -4.4% (PIP4K2C (Homo sapiens, UniProt Q8TBX8); ATP-biotin probe labeling, KiNativ; A-375; 1 µM, 3 h, first of two sites).
For COC(=O)CCC(C(=O)C=Cc1ccc(O)c(OC(F)(F)F)c1)C(=O)C=Cc1ccc(O)c(OC(F)(F)F)c1 (centres unmarked), the band density was 981 ± 209% (APP; Aβ aggregation, SDS-PAGE western blot, refers to: Aβ1-42 75-200 kDa band; 30 µM, 24 h, 37 °C, added: Aβ1-42 10 µM; reference: DMSO).
For `LHITMPFSSPMEAELVRR (LAGE-1 (90-107); sequence looked up)`, the relative IC50 was 3270 (HLA-DPB1*0401; peptide binding, biotinylated peptide competition; peptide; reference: peptide over reference peptide, lower = stronger binding).
Under “farnesylation rate constant”, `CLML` is recorded as 0.018 ± 0.002 s⁻¹ (Protein farnesyltransferase; substrate, stopped-flow fluorescence; peptide; pH 7.8, 25 °C, single turnover).
With O=S(=O)(O)c1cc(N=C=S)ccc1CCc1ccc(N=C=S)cc1S(=O)(=O)O the ID50 was 0.13 µM and 0.16 µM and 0.14 µM (SLC4A1 (Homo sapiens, UniProt P02730); chloride exchange; human resealed ghosts; 0 °C, no chloride gradient, added: chloride 60 mM both sides).
For Cc1cc2nc3c(=O)[nH]c(=O)nc-3n(CC=O)c2cc1C, the Kd was 0.068 µM (T1, FMN riboswitch G8A/G9A/G74A/G96A (Lactobacillus plantarum); ITC; pH 7.5, 25 °C, NaCl 100 mM).
The Kd of O=P(O)(O)O[C@@H]1[C@H](O)[C@H](O)[C@@H](OP(=O)(O)O)[C@H](OP(=O)(O)O)[C@H]1O is reported as 350 ± 50 µM (Arf-GAP with SH3 domain, ANK repeat and PH domain-containing protein 1, residues 325-724 (Asap1, Mus musculus, UniProt Q9QWY8); binding, isothermal titration calorimetry; pH 8.0, 25 °C, saturation not achieved).
The koff of CSCC[C@H](NC(=O)[C@H](CC(C)C)NC(=O)[C@H](CCCCN)NC(=O)[C@H](CCCCN)NC(=O)[C@H](Cc1c[nH]cn1)NC(=O)[C@H](CCCNC(=N)N)NC(=O)[C@H](CO)NC(=O)[C@@H](NC(=O)[C@H](CO)NC(=O)[C@H](CCC(N)=O)NC(=O)CNC(=O)[C@H](CCCCN)NC(=O)[C@H](CCCCN)NC(=O)[C@H](CO)NC(=O)[C@H](CCCCN)NC(=O)[C@H](CC(C)C)NC(=O)[C@H](Cc1c[nH]cn1)NC(=O)[C@H](CO)NC(=O)[C@H](Cc1ccc(O)cc1)NC(C)=O)[C@@H](C)O)C(=O)N[C@@H](Cc1ccccc1)C(=O)N[C@@H](CCCCN)C(=O)N[C@H](C(=O)N[C@@H](CCC(=O)O)C(N)=O)[C@@H](C)O is reported as 760 ± 150 s⁻¹ (Protein S100-B; binding, NMR line shape, Kd from ITC; 35 °C, low salt).
Under “concentration for complete inhibition”, NC(=O)/C(=C/n1cnc(-c2cc(C(F)(F)F)cc(C(F)(F)F)c2)n1)c1cncnc1 is recorded as 10 to 20 µM (Exportin-1 (CRM1, Saccharomyces cerevisiae, UniProt P30822, del377-413/T539C); NES binding, pull-down; 90 min, 4 °C, added: 2 µM protein, 10 µM RanGTP).
For CC[C@H](C)[C@H](NC(=O)[C@@H](NC(=O)[C@H](N)C(C)C)C(C)C)C(=O)N[C@@H](C)C(N)=O, the inhibition was 83.5% (APP; amyloid aggregation, inhibitor, fluorescence; 4 µM, 24 h).
With `Ac-ARPVA-NH2 (N-acetyl, C-amide)` the ID50 was over 3000 µM (Fibroblast growth factor 2, with pentraxin 3 (Homo sapiens, UniProt P09038); binding to PTX3, competitor, surface plasmon resonance; peptide; added: 150 nM free FGF2).
For O=C1O[C@H]([C@@H](O)CO)C(O)=C1O, “apparent redox midpoint concentration” read 5.3 ± 2 µM (Transmembrane ascorbate-dependent reductase CYB561 (CYB561, Bos taurus, UniProt P10897); high-potential heme reduction, spectrophotometric titration; 100 mM phosphate, 18% glycerol, 0.08% dodecyl maltoside; pH 7.2, 5 to 11 µM cytochrome).
Under “duration of complete antagonism”, Clc1ccc2c(c1)CCc1cccnc1C2=C1CCN(CC2CCC2)CC1 is recorded as at least 2 h (HRH1 (Homo sapiens, UniProt P35367); histamine-induced calcium response, antagonist; concentration not given, after washout of unbound compound, added: histamine).
For `CGLF`, “farnesylation rate constant” read 0.051 ± 0.005 s⁻¹ (Protein farnesyltransferase; substrate, stopped-flow fluorescence; peptide; pH 7.8, 25 °C, single turnover).
Cn1c(=O)c2[nH]c(SCc3ccccc3)nc2n(C)c1=O has a remaining activity of 121% (AR; reporter gene, antagonist, PSA-luciferase; HeLa-A6; 10 µM, 24 h, added: 5 nM dihydrotestosterone; reference: maximal activity).
The efficacy of C[C@]12CC[C@@H]3c4ccc(O)cc4C[C@@H](CCCCCCCCC[S+]([O-])CCCC(F)(F)C(F)(F)F)[C@H]3[C@@H]1CC[C@@H]2O (some centres unmarked) is reported as -7 ± 1% (ESR1; reporter gene, antagonist; HepG2; added: estradiol 10 nM; reference: E2 response, negative is inverse agonism).
C=CCNC1=C2C[C@@H](C)C[C@H](OC)[C@H](O)[C@@H](C)/C=C(\C)[C@H](OC(N)=O)[C@@H](OC)/C=C\C=C(/C)C(=O)NC(=CC1=O)C2=O — result for “OHT-induced ER degradation”: “inhibited” (ESR1; western blot; MCF7; 1 µM, 0.5 h pretreatment, added: 1 µM 4-hydroxytamoxifen 5.5 h).
CC(=O)N[C@@H](CCCCN)C(=O)N[C@@H](CCCNC(=N)N)C(=O)N[C@@H](CC(C)C)C(=O)N[C@@H](CCCNC(=N)N)C(=O)N[C@@H](CCCNC(=N)N)C(=O)N[C@@H](CO)C(=O)N[C@@H](C)C(=O)N[C@@H](Cc1c[nH]cn1)C(=O)N[C@@H](C)C(=O)N[C@@H](CCCNC(=N)N)C(=O)N[C@@H](CCCCN)C(=O)N[C@@H](CCC(=O)O)C(=O)N[C@H](C(=O)N[C@@H](CCC(=O)O)C(=O)N[C@@H](Cc1ccccc1)C(=O)N[C@@H](CC(C)C)C(=O)N[C@@H](CCCNC(=N)N)C(=O)N[C@@H](CC(C)C)C(=O)N[C@@H](CCCCN)C(=O)N[C@@H](CCCNC(=N)N)C(=O)N[C@H](C(=O)N[C@@H](CCCNC(=N)N)C(=O)N[C@@H](CC(C)C)C(=O)NCC(=O)N[C@@H](CC(C)C)C(=O)N[C@@H](CCC(=O)O)C(=O)N[C@@H](Cc1ccc(O)cc1)C(N)=O)[C@@H](C)O)[C@@H](C)O: “heat capacity change” -1.5 ± 0.3 kJ/mol/K (Protein S100-B; binding, ITC; concentration not given, 5 to 35 °C, low salt, added: 5 mM Ca2+).
CC(C(=O)O)c1ccc(N2Cc3ccccc3C2=O)cc1 (centres unmarked) has a remaining activity of 4.23% (CASP4; 33 µM, added: LEHD substrate; reference: solvent control).
The apparent ΔG2 of CC[C@H](C)[C@H](NC(=O)[C@H](CC(C)C)NC(=O)[C@H](CC(C)C)NC(=O)CNC(=O)[C@H](Cc1ccc(O)cc1)NC(=O)[C@H](CCCNC(=N)N)NC(=O)[C@H](CO)NC(C)=O)C(=O)N[C@@H](CCCCN)C(=O)N[C@@H](C)C(=O)N[C@@H](Cc1ccccc1)C(=O)N[C@@H](CO)C(=O)N[C@@H](CCSC)C(=O)N[C@H](C(=O)N[C@@H](C)C(=O)N[C@@H](C)C(=O)N[C@@H](CCC(=O)O)C(=O)N[C@H](C(=O)N[C@@H](C)C(=O)N[C@@H](CCCNC(=N)N)C(=O)N[C@@H](CCCNC(=N)N)C(=O)N[C@H](C(=O)N[C@@H](CCCNC(=N)N)C(=O)N[C@@H](CCC(=O)O)C(=O)N[C@@H](Cc1ccccc1)C(=O)N[C@@H](CCCNC(=N)N)C(N)=O)[C@@H](C)O)[C@@H](C)O)[C@@H](C)O is reported as -14.9 ± 0.28 kcal/mol (calmodulin 1-148 sites I and II; calcium binding, Phe fluorescence titration; 12 µM, pH 7.4, 22 °C, added: 6 µM calmodulin).
For CC(C)[C@H](NC(=O)[C@H](CCCNC(=N)N)NC(=O)[C@@H](NC(=O)[C@H](CCC(N)=O)NC(=O)[C@@H](CCC(N)=O)NC(=O)[C@@H](NC(=O)[C@H](Cc1c[nH]c2ccccc12)NC(=O)[C@@H]1CCCN1C(=O)[C@@H]1CCCN1C(=O)[C@H](Cc1ccccc1)NC(=O)[C@H](CO)NC(=O)CNC(=O)[C@H](CCCNC(=N)N)NC(=O)[C@H](CCCNC(=N)N)NC(=O)[C@H](CCCNC(=N)N)NC(=O)[C@H](CCCNC(=N)N)NC(=O)[C@H](CCCNC(=N)N)NC(=O)[C@@H](N)CCCNC(=N)N)C(C)C)[C@@H](C)O)C(=O)O, the kon was 317000 M⁻¹ s⁻¹ (Disks large homolog 4, PDZ3 domain (Homo sapiens, UniProt P78352); binding, surface plasmon resonance; pH 7.5, 25 °C).
CNC(=O)c1cc(Oc2ccc(NC(=O)Nc3ccc(Cl)c(C(F)(F)F)c3)cc2)ccn1 has a stimulation of 27% (Signal peptidase IB (spsB, Staphylococcus aureus, UniProt Q5HHB9); enzyme activity, activator, FRET peptide cleavage; Escherichia coli membranes; 10 µM; reference: DMSO).
For CC[C@H](C)[C@H](NC(=O)C(C)(C)NC(=O)[C@@H](N)C(C)C)C(=O)N[C@@H](C)C(N)=O, the inhibition was 52.1% (APP; amyloid aggregation, inhibitor, fluorescence; 2 µM, 24 h).
With O=C(c1ccccc1)c1ccc2n1CCC2C(=O)O (centres unmarked) the remaining activity was 4.09% (CASP4; 33 µM, added: LEHD substrate; reference: solvent control).
For CC(NC(=O)CCCc1ccc2ccc3cccc4ccc1c2c34)C(=O)NO (centres unmarked), “protons released on binding” read 0.08 ± 0.03 protons per ligand (HDAC8 (Homo sapiens, UniProt Q9BY41); ITC in four buffers; concentration not given, pH 7.5).
For CSc1nc2c([nH]1)c(=S)n(C)c(=S)n2C, the remaining activity was 75% (AR; reporter gene, antagonist, PSA-luciferase; HeLa-A6; 10 µM, 24 h, added: 5 nM dihydrotestosterone; reference: maximal activity).
With O=Cc1c[nH]c2ccccc12 the EC25 was 110 µM (AHR (Homo sapiens, UniProt P35869); reporter gene, agonist; HepG2 40/6 luciferase reporter; 4 h; reference: 10 nM TCDD).
Under ATPase activity, CNC(=O)c1cc(Oc2ccc(NC(=O)Nc3ccc(Cl)c(C(F)(F)F)c3)cc2)ccn1 is recorded as “inhibited” (ABCC2 (Homo sapiens, UniProt Q92887); stimulated ATPase activity, inhibitor; membrane vesicles; 0.14 to 300 µM, 10 min).
With COC(=O)CCC(C(=O)C=Cc1ccc(O)c(OC(F)(F)F)c1)C(=O)C=Cc1ccco1 (centres unmarked) the band density was 1430 ± 285% (APP; Aβ aggregation, SDS-PAGE western blot, refers to: Aβ1-42 75-200 kDa band; 30 µM, 24 h, 37 °C, added: Aβ1-42 10 µM; reference: DMSO).
`Ac-GPSLNPFDEED-NH2 (N-acetyl, C-amide)` gave a ΔH of -11.3 kcal/mol (EHD1 EH domain, mouse; ITC; peptide; pH 7.0, 20 °C, 0 mM KCl, second titration).

Excerpt of the above:
CC(=O)N[C@@H](CCCCN)C(=O)N[C@@H](CCCNC(=N)N)C(=O)N[C@@H](CC(C)C)C(=O)N[C@@H](CCCNC(=N)N)C(=O)N[C@@H](CCCNC(=N)N)C(=O)N[C@@H](CO)C(=O)N[C@@H](C)C(=O)N[C@@H](Cc1c[nH]cn1)C(=O)N[C@@H](C)C(=O)N[C@@H](CCCNC(=N)N)C(=O)N[C@@H](CCCCN)C(=O)N[C@@H](CCC(=O)O)C(=O)N[C@H](C(=O)N[C@@H](CCC(=O)O)C(=O)N[C@@H](Cc1ccccc1)C(=O)N[C@@H](CC(C)C)C(=O)N[C@@H](CCCNC(=N)N)C(=O)N[C@@H](CC(C)C)C(=O)N[C@@H](CCCCN)C(=O)N[C@@H](CCCNC(=N)N)C(=O)N[C@H](C(=O)N[C@@H](CCCNC(=N)N)C(=O)N[C@@H](CC(C)C)C(=O)NCC(=O)N[C@@H](CC(C)C)C(=O)N[C@@H](CCC(=O)O)C(=O)N[C@@H](Cc1ccc(O)cc1)C(N)=O)[C@@H](C)O)[C@@H](C)O: “heat capacity change” -1.5 ± 0.3 kJ/mol/K (Protein S100-B; binding, ITC; concentration not given, 5 to 35 °C, low salt, added: 5 mM Ca2+).
CC(C(=O)O)c1ccc(N2Cc3ccccc3C2=O)cc1 (centres unmarked) has a remaining activity of 4.23% (CASP4; 33 µM, added: LEHD substrate; reference: solvent control).
